Experimental data pooled from the literature.
Every numbered part comes from another study and shows a few of its results, in no order. “And” joins repeats or separate records; there may be more than shown. Changes are numbered by the printed parent chain.
Chain of UniProt Q9HCP0 (whole entry, looked up): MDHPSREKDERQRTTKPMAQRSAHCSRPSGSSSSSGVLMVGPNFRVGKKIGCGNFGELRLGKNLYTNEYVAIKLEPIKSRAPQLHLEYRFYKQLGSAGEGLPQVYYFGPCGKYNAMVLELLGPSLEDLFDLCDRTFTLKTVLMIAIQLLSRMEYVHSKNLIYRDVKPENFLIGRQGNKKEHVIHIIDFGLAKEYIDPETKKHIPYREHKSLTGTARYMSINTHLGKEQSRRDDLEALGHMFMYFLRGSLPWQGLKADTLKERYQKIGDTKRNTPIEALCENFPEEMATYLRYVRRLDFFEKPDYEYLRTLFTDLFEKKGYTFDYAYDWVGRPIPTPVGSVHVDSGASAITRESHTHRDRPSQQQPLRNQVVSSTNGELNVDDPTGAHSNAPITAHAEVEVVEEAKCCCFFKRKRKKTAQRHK
Chain of UniProt P41143 (whole entry, looked up): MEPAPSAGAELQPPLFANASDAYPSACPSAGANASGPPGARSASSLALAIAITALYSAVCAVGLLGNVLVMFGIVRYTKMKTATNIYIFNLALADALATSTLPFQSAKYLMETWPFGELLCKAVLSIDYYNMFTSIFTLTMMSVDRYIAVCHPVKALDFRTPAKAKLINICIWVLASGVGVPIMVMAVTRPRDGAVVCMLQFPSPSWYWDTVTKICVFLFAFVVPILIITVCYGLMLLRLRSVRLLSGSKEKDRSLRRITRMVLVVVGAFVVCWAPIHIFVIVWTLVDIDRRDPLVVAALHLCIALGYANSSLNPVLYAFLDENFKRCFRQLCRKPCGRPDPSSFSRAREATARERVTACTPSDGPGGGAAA
Chain of UniProt P11229 (whole entry, looked up): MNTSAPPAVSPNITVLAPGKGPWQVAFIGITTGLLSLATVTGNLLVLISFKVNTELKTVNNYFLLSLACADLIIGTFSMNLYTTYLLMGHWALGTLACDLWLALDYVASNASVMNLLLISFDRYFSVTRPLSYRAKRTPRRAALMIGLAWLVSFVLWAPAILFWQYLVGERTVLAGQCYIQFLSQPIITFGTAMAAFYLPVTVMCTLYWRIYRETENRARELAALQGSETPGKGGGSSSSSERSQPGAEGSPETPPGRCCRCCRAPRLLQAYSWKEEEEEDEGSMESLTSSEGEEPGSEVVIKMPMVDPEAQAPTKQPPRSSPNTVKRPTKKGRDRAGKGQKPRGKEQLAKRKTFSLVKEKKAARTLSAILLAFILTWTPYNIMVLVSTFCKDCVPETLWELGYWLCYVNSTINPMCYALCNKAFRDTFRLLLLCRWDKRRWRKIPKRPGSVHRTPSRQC

Series 1 — observed: binding; method: radioligand binding; tested at: 10 µM
Structure (SMILES): CCCCN(CCCC)C(=O)CN1C[C@H](c2cc(OC)c3c(c2)OCO3)[C@@H](C(=O)O)[C@@H]1CC(C)(C)CCC
target | inhibition
5-hydroxytryptamine receptor 2A (HTR2A, Homo sapiens, UniProt P28223) | 8.83%
Muscarinic acetylcholine receptor M1 (CHRM1, Homo sapiens, UniProt P11229) | -19.4%
Delta-type opioid receptor (OPRD1, Homo sapiens, UniProt P41143) | 25.6%

Series 2 — target: vanadate, free oxyanion; method: microfluidic competitive inhibition; sample: in vitro, cell-free expressed; tested at: not given; reading: lower = stronger binding
Notes: derived from inhibition constants, unchanged parent 676 nM
Starting sequence: PafA, mature enzyme, eGFP fusion (Elizabethkingia meningoseptica, UniProt Q9KJX5); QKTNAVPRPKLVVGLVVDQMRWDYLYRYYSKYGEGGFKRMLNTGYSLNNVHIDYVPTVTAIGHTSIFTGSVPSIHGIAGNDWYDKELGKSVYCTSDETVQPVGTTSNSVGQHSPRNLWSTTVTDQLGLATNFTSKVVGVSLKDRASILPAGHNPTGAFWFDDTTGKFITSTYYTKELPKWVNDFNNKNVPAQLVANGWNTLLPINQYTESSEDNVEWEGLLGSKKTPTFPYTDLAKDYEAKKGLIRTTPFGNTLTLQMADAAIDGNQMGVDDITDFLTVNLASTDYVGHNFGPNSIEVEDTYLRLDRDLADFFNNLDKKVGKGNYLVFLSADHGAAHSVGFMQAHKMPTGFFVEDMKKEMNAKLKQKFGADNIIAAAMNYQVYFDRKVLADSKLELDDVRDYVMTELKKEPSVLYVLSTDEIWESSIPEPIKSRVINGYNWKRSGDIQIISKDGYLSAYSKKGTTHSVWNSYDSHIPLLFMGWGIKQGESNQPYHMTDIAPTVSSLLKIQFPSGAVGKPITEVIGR
Change | oxyanion analog dissociation constant [µM]
P178V | 0.623
R21V | 0.912
G438V | 0.695
S119G | 0.401
D161V | 0.55
L234G | 0.766
W180V | 2.32
W118V | 0.652

Series 3 — observed: phage display binding; method: phage display panning NGS; form: peptide; notes: panning round 3; reference: OGT-panned over input library
Target: UDP-N-acetylglucosamine--peptide N-acetylglucosaminyltransferase 110 kDa subunit (OGT, Homo sapiens, UniProt O15294)
Chain of UniProt O15294 (whole entry, looked up): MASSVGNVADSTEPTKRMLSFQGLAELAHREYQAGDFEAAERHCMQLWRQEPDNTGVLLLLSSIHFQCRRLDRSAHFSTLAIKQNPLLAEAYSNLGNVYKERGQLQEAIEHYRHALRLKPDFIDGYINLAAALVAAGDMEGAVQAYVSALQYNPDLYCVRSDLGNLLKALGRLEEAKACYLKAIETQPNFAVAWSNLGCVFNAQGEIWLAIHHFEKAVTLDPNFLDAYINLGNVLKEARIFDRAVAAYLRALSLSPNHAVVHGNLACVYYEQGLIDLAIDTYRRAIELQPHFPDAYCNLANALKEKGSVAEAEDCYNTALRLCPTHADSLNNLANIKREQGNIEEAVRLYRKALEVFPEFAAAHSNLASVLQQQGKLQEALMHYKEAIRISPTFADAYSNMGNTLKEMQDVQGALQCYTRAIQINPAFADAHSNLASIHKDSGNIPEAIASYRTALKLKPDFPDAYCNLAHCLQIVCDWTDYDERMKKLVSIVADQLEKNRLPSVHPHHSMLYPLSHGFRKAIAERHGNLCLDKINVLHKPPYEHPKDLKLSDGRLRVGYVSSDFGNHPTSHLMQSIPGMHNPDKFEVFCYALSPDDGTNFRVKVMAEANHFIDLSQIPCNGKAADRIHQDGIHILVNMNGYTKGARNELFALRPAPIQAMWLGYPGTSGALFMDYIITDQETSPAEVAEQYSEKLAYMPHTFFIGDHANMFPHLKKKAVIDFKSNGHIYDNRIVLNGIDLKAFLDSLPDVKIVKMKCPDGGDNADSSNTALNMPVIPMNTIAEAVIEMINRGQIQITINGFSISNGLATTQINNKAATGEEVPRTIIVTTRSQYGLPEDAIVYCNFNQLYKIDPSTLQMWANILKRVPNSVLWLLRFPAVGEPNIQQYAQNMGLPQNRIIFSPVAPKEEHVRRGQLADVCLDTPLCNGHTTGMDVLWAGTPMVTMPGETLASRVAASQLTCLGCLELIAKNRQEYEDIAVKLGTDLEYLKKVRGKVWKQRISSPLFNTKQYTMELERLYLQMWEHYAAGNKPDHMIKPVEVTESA
Molecule | fold enrichment
YAPQYQILFNYNIKL | 1.94
SFLKYQPKYPIVYNV | 4.1
GRFNPVYQMVWEKTV | 3.75
YEPMYLPQYQMIWNK | 4.11
VYSPVYQIIVNQNH | 2.69
GADYLPKYQVVYNVR | 2.1
FMPMYEIKYAKREDN | 2.48
DDTGPFQPMYQIQII | 4.56

Mixed results
Compound | target or system | test | test system | setting | scale | quantity | value
CCN(C)C(=O)Oc1cccc([C@H](C)N(C)C)c1 | mouse MPNST tumor cells | high-content nuclear imaging, item: cell number | – | 10 µM, 12 h, mean of 2 replicates | reference: plate mean, higher = more cells | nuclei count | 1.03 z-score and 1.16 z-score
CCn1cnc2c(Nc3cccc(Cl)c3)nc(N[C@H]3CCCC[C@H]3N)nc21 | Casein kinase I isoform gamma-1 (CSNK1G1, Homo sapiens, UniProt Q9HCP0) | enzyme activity, inhibitor | – | 0.5 µM | reference: control | remaining activity | 56.8%
C=CCCC(CN1C[C@H]2CC=CC[C@H]2C1)Oc1ncc(Cl)cn1 (some centres unmarked) | – | – | human, microsomes or S9 | 2 µM, 0.5 h | – | remaining compound | 6.81%
CCN(CC)C(C)C(=O)c1ccccc1 (centres unmarked) | mouse MPNST tumor cells | high-content nuclear imaging, item: cell number | – | 10 µM, 12 h, mean of 2 replicates | reference: plate mean, higher = more cells | nuclei count | 2.16 z-score

A few entries again (series 3):
Molecule | fold enrichment
GRFNPVYQMVWEKTV | 3.75
SFLKYQPKYPIVYNV | 4.1
YAPQYQILFNYNIKL | 1.94
